Measurements gathered from unrelated publications.
Parts stem from different laboratories: compare values within a part only.

Set 1
Target: Interferon regulatory factor 5, full length, phosphomimetic (IRF5, Homo sapiens, UniProt Q13568-2, residues 1-514, K96S/S451D/S453D/S456D/S462D)
Method: protein-binding microarray
Form: double-stranded DNA, one strand shown
Medium: in vitro
Tested at: 250 nM
Notes: 60-bp whole probe
With: salmon DNA 0.4 mg/ml
Baseline: random background probes
Reading: higher = stronger binding
Quantity: log fluorescence
Constant ends, left off below: GCCTAGCAC … GTCTTGATTCGCTTGACGCTGCTG
TAATATCTAAGATTCTAGCCGTGCTAG: 0.177 z-score
TTAGGTTTCGGACTGGGTTGGTGCTAG: 5.18 z-score
TCAAATCTCCCATTATAACTGTGCTAG: 0.491 z-score
AAACCATCCTGTATGGATGTGTGCTAG: -0.0922 z-score
TTAGGTTTCGGGTATCGGTTCGTGCTA: 9.42 z-score
TCATACTTCCCACTGGTACTGTGCTAG: 0.0955 z-score
GTAGGTATCCTTCTCCTTTAGTGCTAG: -0.000641 z-score

Set 2
Target: Sal-like protein 4, full length isoform B (SALL4, Homo sapiens, UniProt Q9UJQ4-2, residues 1-616)
Method: universal PBM
Form: double-stranded DNA, one strand shown
Medium: in vitro
Tested at: not given
Notes: 8-mer, flanks averaged, mean of replicates
Reading: higher = stronger binding
Quantity: E-score
Construct (chain): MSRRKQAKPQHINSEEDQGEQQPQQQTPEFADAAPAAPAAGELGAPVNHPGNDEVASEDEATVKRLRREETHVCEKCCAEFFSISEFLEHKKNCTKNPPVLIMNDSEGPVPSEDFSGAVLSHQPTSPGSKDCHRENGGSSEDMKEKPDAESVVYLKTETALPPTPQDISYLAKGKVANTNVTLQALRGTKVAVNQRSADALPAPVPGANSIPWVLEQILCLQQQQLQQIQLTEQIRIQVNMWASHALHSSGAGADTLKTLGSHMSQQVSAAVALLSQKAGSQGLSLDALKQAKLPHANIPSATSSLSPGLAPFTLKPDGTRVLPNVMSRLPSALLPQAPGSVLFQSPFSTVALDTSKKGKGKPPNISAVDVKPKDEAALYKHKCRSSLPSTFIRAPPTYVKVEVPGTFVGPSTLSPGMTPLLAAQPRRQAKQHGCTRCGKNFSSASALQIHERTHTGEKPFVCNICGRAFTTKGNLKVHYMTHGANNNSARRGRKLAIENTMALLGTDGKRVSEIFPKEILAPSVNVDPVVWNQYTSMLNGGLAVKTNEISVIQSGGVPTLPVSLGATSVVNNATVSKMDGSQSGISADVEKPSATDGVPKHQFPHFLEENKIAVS
CAATTAGG: 0.0092
CTACTAAA: 0.19
AACGACTG: -0.0973
CCGACGAG: -0.192
AGACAACT: 0.0845

Set 3
Target: Ras GTPase-activating protein-binding protein 1, C-terminal RGG region (G3BP1, Homo sapiens, UniProt Q13283)
UniProt Q13283, sequence (whole entry, looked up): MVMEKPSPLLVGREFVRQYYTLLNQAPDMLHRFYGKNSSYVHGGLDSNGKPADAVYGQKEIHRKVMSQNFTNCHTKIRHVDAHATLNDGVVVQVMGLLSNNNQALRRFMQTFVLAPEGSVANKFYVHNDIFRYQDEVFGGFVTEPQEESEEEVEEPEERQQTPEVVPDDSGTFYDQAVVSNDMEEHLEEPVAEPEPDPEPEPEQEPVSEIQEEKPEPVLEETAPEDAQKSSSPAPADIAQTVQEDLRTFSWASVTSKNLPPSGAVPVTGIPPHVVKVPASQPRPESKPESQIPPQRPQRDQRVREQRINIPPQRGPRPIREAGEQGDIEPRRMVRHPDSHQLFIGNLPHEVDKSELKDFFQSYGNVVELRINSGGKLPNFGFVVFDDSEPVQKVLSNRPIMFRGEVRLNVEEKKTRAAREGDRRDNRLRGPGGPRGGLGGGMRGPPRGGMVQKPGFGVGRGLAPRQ
Method: RNA Bind-n-Seq
Form: RNA
Medium: in vitro
Tested at: 1 µM
Notes: whole 134-nt RNA, ends assumed
With: 150 mM KCl
Baseline: input library
Reading: higher = stronger binding
Quantity: log2 enrichment
Constant ends, left off below: GGGAGUUCUACAGUCCGACGAUC … UGGAAUUCUCGGGUGUCAAGG
UGGCCCUCAAGCACUGCACAGAGGCCCUUCUUUCUCUUGGCCAGUACUCCAUGGCAGACUUCACAGGGCCUUGUCCAUUGGAAAUAGAAC: -1.39
UGGGAGGUGGAUUUUGUUUAUUUUUUUAGCUCAUUUCCAGGGGUGGGAAUUUUUUUUUAAUAUGUGUCCUGAAUAAAGUUGUUUUUGAAA: 4.03
CCUGUGCUACACAUCGUAUGUACCGAAUCGGGUUUUUUUGGGAAAAAGGGUUUUUUUGGGAAAGUAUUAUGUUACGCCGUUCGGAUCUGC: -1.9
GCAGGAAGUAAAAACAAAUGGAAAUGCUUCGGAUAGUGGCAGGUGUGGGGGUUGCUAAGGAAAGGGUGGGAUGGGAGUGGGUAAAGAGUU: 2.37
ACCAUGCAGGUGGGCAUCUUUGGGAAGUGGGGGAAGGGGGGGAUAGGGAGGGGGGUAACACUUUGGGAACAGGUGGUCCCAGGUCGUUUC: -1.1

Single results of other studies
PhoQ, residues 284 288 289 292 302 303 TTCLQL — fold induction (PhoP, residues 12 14 15 18 19 LYFRQ (Escherichia coli, UniProt P23836); Sort-seq, measured: YFP reporter; E. coli; PhoQ-PhoP variant library, with: 10 µM Mg2+; baseline: high Mg2+ state, higher = stronger signaling): 3.47

For quick reference, copied from above (set 1):
TAATATCTAAGATTCTAGCCGTGCTAG: 0.177 z-score
TCATACTTCCCACTGGTACTGTGCTAG: 0.0955 z-score
